# Assay results gathered from unrelated publications.
# Parts stem from different laboratories: compare values within a part only.

# Block 1
# Target: Ras GTPase-activating protein-binding protein 1, C-terminal RGG region (G3BP1, Homo sapiens, UniProt Q13283)
# Chain of UniProt Q13283 (whole entry, looked up): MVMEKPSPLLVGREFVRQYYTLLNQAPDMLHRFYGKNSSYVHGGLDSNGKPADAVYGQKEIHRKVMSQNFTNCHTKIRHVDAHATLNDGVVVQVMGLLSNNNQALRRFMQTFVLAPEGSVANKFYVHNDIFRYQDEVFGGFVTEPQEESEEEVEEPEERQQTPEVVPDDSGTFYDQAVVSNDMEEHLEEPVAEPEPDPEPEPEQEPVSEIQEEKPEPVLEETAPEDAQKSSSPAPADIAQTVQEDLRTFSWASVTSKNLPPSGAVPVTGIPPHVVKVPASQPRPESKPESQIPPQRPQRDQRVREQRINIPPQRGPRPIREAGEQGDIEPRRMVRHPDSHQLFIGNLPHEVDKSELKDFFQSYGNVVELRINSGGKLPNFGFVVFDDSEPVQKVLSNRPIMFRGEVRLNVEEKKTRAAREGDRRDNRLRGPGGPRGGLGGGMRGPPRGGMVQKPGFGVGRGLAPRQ
# Technique: RNA Bind-n-Seq
# Form: RNA
# Medium: in vitro
# Tested at: 1 µM
# Setting: whole 134-nt RNA, ends assumed
# Together with: 150 mM KCl
# Reference: input library
# Direction: higher = stronger binding
# All sequences stand within: GGGAGUUCUACAGUCCGACGAUC … UGGAAUUCUCGGGUGUCAAGG
Strand,log2 enrichment
CAAGUCCUGUGCUACACAUCGUAUGUACCGAAUCGGGCCCCGGCCCCGGGCCCCGGAAAGUAUUAUGUUACGCCGUUCGGAUCUGCACUU,-1.87
CCUCAAGUCCUGUGCUACACAUCGUAUGUACCGAAUCGGGGAGGGGAGGGAGGAAAGUAUUAUGUUACGCCGUUCGGAUCUGCACUUCCA,0.432
CUCAAGUCCUGUGCUACACAUCGUAUGUACCGAAUCGGGGUUGGGUUGGUUGGGAAAGUAUUAUGUUACGCCGUUCGGAUCUGCACUUCC,0.18
ACCAUGCAGGUGGGCAUCUUUGGGAAGUGGGGCAAGGGGGGGAUAGGGAGGCGGGUAACACUUUGGGAACAGGUGGUCCCAGGUCGUUUC,2.03
UAACUUUAGAGGAGGAUCUGAUGGAUAUGCCAGUGGACGUGGAUUUGGGGAUGGCUAUAAUGGGUAUGGAGGAGGACCUGGAGGUGGCAA,-1.25
UCCUGUGCUACACAUCGUAUGUACCGAAUCGGGGAAAGGGGAAAGGGGAAAAAAAGGGGAAAGUAUUAUGUUACGCCGUUCGGAUCUGCA,1.41
UCAAGUCCUGUGCUACACAUCGUAUGUACCGAAUCGGUUUUUGGAAAAAGGUGGAAAGUAUUAUGUUACGCCGUUCGGAUCUGCACUUCC,-1.07
UCCUGUGCUACACAUCGUAUGUACCGAAUCGGGGAAAAAAAGGGGAAAAAGGGGUGGGGAAAGUAUUAUGUUACGCCGUUCGGAUCUGCA,1.82
UCCUGUGCUACACAUCGUAUGUACCGAAUCGGGUUUUUUUGGGUUUUUUUGGGAAAGGGAAAGUAUUAUGUUACGCCGUUCGGAUCUGCA,-0.471

# Block 2
# Target: Sal-like protein 4, full length isoform A (SALL4, Homo sapiens, UniProt Q9UJQ4, residues 1-1053)
# Chain of UniProt Q9UJQ4 (whole entry, looked up): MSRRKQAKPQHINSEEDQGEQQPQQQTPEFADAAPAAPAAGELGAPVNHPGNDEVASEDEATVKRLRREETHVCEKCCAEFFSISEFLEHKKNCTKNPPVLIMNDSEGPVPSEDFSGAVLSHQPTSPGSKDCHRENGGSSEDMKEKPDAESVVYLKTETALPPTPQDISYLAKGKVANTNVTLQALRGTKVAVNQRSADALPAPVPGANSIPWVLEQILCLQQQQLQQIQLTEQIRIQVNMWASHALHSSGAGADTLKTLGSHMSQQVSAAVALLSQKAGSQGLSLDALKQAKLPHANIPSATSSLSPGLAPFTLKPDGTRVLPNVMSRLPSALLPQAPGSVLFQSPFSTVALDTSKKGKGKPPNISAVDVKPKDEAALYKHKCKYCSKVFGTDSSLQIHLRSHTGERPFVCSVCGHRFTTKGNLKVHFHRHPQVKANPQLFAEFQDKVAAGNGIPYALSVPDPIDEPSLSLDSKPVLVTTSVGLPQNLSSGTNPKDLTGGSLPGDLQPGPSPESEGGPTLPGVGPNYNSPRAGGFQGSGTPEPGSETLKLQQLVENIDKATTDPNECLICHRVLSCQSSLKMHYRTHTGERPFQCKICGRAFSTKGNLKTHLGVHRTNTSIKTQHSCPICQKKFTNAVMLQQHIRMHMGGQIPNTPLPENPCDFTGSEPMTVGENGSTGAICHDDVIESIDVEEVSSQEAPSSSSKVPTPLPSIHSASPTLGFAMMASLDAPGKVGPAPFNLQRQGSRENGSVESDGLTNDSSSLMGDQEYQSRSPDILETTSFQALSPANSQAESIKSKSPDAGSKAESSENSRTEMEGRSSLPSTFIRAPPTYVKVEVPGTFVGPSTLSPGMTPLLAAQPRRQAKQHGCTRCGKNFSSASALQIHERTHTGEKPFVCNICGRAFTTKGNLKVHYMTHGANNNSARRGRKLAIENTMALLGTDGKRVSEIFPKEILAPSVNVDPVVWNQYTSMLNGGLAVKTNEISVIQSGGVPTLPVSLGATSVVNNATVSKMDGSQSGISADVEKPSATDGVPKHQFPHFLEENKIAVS
# Technique: universal PBM
# Form: double-stranded DNA, one strand shown
# Medium: in vitro
# Tested at: 600 nM
# Setting: 8-mer, flanks averaged, mean of replicates
# Direction: higher = stronger binding
Strand,E-score
GACGTCGA,-0.149
ATAGGGTC,-0.15
CTGACTGC,-0.19
AGGCGATA,0.0416
CCGGACAG,-0.289
CACTCCCG,-0.127
AAAGTTAT,0.325
GCTAGTTA,0.119
AGACTCCC,-0.212
AATTTGTG,0.188
ACTTTACC,0.162
TCGGAAGA,-0.0779
GTGCCATA,0.123
ACAGGGCG,-0.11
ACTTAAGC,0.0836
AGGCTGGA,-0.166
AGGACGGC,-0.196
ATGGGTCC,-0.0363
CGATCTTC,-0.142
AACGCTCC,-0.0583
AACACCGC,-0.247

# Block 3
# Target: Interferon regulatory factor 5, full length, phosphomimetic (IRF5, Homo sapiens, UniProt Q13568-2, residues 1-514, S451D/S453D/S456D/S462D)
# Technique: protein-binding microarray
# Form: double-stranded DNA, one strand shown
# Medium: in vitro
# Tested at: 940 nM top
# Setting: 60-bp whole probe
# Together with: salmon DNA 0.4 mg/ml
# Reference: random background probes
# Direction: higher = stronger binding
# All sequences stand within: GCCTAGCAC … GTCTTGATTCGCTTGACGCTGCTG
Strand,fitted relative affinity [z-score]
GACGGTATCCGGTATCGGGACGTGCTA,1.53
TCATGTTTCTCAAATGTTACTGTGCTA,0.917
TTAGGTTCCGGGTATCGGTTAGTGCTA,4.01
TCAGGTCACTCTCTGGGACTGTGCTAG,-0.0522
TTGTGTCTGGGCTTTTTCCCCGTGCTA,-0.728
TTAGATGTCAGTATCGATTAGTGCTAG,4.95
TTAGATCTCACTTTCGATTAGTGCTAG,5.03
TTAGAACTGAGTCTCGATTTGTGCTAG,2.5
TCAACACTGGTTTTTACACTGTGCTAG,-0.0134
TTAGGTTTCGGTTCCGGATAGTGCTAG,14.7
TCACATATTTATCTGCAACTGTGCTAG,0.434
TCAAGGGTCTGTTTGGGACTGTGCTAG,-0.688
GACGGTTTTGGTCTCGGGACGTGCTAG,3.81
TCATTTTTTCTAATTGAACTGTGCTAG,0.697
GACTTTTTAGATATCTTTTTGTGCTAG,0.399
TGGTCTTTCCACTTTCTTTTGTGCTAG,1.81
TAAGGTTTCGGTTCCGGTTAGTGCTAG,12.6
GACGATTTAAGACTGGAGACGTGCTAG,-0.303

# Block 4
# Target: Histone acetyltransferase KAT6A, winged helix 1, GST fusion (KAT6A, Homo sapiens, UniProt Q92794, residues 1-85)
# Technique: protein binding microarray
# Form: double-stranded DNA, one strand shown
# Medium: in vitro
# Tested at: not given
# Setting: 8-mer, flanks averaged, mean of 2 arrays, mostly near background
# Reference: not given
# Direction: higher = stronger binding
# Residues (chain): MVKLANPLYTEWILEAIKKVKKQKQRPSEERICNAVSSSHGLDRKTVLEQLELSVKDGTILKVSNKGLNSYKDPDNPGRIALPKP
Strand,E-score
AGCCCCAG,-0.209
AAATAACG,0.0611
AAGGGTGG,-0.216
GAATCGGC,0.24
AGACCATC,-0.0348
AGAACGAA,-0.176
ACAGTAAC,0.0165
CAAGAACG,-0.0205
CACTTTCA,-0.0605
ATACTCGA,0.0267
TCTTGGAA,-0.186
AGCGTGAA,0.0117
ATTATAAT,-0.0929
ACCAGCCC,0.0499
GAATGGGC,-0.0888
CCACTTCC,-0.176
CACAAAGG,-0.113
CTGCGACC,-0.0178
CGAGACAA,-0.147
CCCATGAA,-0.285
GTTGGCCA,-0.173
AAAGGAGG,-0.174
AAGGACGC,0.142

# Block 5
# Target: RING finger protein unkempt homolog, zinc fingers 1-6, GST-SBP tag (UNK, Homo sapiens, UniProt Q9C0B0, residues 30-357)
# Technique: RNA Bind-n-Seq
# Form: RNA
# Medium: in vitro
# Tested at: not given
# Setting: RNA with constant flanks, human and mouse sites, ends assumed
# Reference: input RNA pool
# Direction: higher = stronger binding
# All sequences stand within: GGGAGUUCUACAGUCCGACGAUC … CAACAGAGGAUUGAGCAUCA
# Residues (chain): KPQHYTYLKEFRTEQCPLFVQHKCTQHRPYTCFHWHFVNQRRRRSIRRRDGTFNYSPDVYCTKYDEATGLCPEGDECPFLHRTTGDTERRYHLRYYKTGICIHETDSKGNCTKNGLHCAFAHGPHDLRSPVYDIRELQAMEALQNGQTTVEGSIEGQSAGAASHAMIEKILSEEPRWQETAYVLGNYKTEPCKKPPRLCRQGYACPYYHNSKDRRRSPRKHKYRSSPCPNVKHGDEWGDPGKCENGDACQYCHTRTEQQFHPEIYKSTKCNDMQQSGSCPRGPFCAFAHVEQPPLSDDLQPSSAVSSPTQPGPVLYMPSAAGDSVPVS
Strand,bound/input enrichment
AGUGCUAAAGAUGAUUCUCCUAAGGAGUACACUGACCUAGAAGUAUCCAACAAAAGUGAAAUUGCUAAUGUCCAGAGCGGGGCCAAUUCGUUGCCUUGCUCAGAAUUGCCCUGUGACCUU,0.22 ratio
GAGGAGAAGCCGCCUAAUCCUAUGGAAGGCAUGACAGAGGAGCAGAAGGAACAUGAGGCCAUGAAGCUAGUGAACAUGUUUGACAAGCUCUCCAGGCACAGAGUCAUCCAACCCAUGGGG,0.157 ratio
UCUCCACAAUCAAUAGGUUUCCAAGCAACAAUCAGUGCUCCACACAUGCAUGCAUAUGCGCUAGAACUUCUAUUUGAUCAGUUGCAUGAAGGAGCUAAAGCUCUUGAUGUAGGAUCUGGA,0.683 ratio
UUUGAGAAGAAGGAGAAAAAUAAAGAGGCAAUAUAUAGUGGAUAUAUUAGAAACAGAAAGCCCUCUGAUUCUGUUCACAUUACAAAUGAUGAUGAAAGAUUUCUACAUCAUCUUAUCAUA,1.44 ratio
GUUUUCUCCUAAUGGGCAUAUGUAUCUUUGUGGACACUUGGAAGAGAGGUUUUCUUGUACUCUCUCAUUUCUAGAAUCUUUAUACUCUUUUUCCUGCAAGGUUCUCUGCUUUUAACAGAU,2.41 ratio
UUCUAUCGCGCCCUCUUGGCUGCUAGUUGUCGCGCUCUCCAUCUCACCAUGCUGUCUCUAGACUUUCUAGACGAUGUGCGGCGGAUGAACAAGAGGCAGCUGUACUACCAAGUCCUAAAU,0.0973 ratio
AGUGAGCCUGAAGAGAAGCUCCAGGAAACAGUUGAACCGACUUCAAAGCAGUUAACUGAAUCCUCUGAAGAGGCAAAAGAAGCAGCAAUACCAGGACUGAAUGAAGAUGAGGUCGCUUCU,0.179 ratio
GUUGUAUAAAUUUUAUUUUCAUAUUAAGUCUCAACUAUUGUAUAUCAGACUAUGUGCCCAUCAAAUCUCUUAGAAUUUGCUAUUGAAAAAAAUUUUGCUAUUGGUUUAGAAUAUUGAGUG,20.5 ratio

# Block 6
# Target: Myc proto-oncogene protein, bHLH-zipper, MAX partner unstated (MYC, Homo sapiens, UniProt P01106, residues 368-449)
# Chain of UniProt P01106 (368-449, looked up): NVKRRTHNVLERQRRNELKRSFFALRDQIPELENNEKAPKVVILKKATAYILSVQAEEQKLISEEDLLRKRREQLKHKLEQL
# Technique: protein-binding microarray
# Form: double-stranded DNA, one strand shown
# Medium: in vitro
# Tested at: not given
# Setting: k-mer, scored over probes, only values ≥0.25
# Direction: higher = stronger binding
Strand,E-score
ACGAGACA,0.29
CATGGGGG,0.357
ACAATGCG,0.256
CGCGCTGC,0.279
AACGAGGC,0.277
CACGTGAG,0.473
ACATGGCG,0.398
CCACGGGG,0.368
ACCTGCGT,0.252
AGCGTGTC,0.389
ACGACACG,0.335
CGCGGCAC,0.284
ACTACACG,0.316

# Some of these lines once more (block 4):
Strand,E-score
ATACTCGA,0.0267
TCTTGGAA,-0.186
AGCGTGAA,0.0117
ATTATAAT,-0.0929
ACCAGCCC,0.0499
GAATGGGC,-0.0888
CCACTTCC,-0.176
CACAAAGG,-0.113
CTGCGACC,-0.0178
